Experimental data from different studies.
Numbered parts are unrelated; each lists some results of a single study. Substitutions count along the parent as printed.

Block 1
Target: CEP164, C-terminal peptide (human)
Method: DHFR complementation, deep sequencing
Matrix: yeast
Setting: single substitutions, model-inferred values
Reference: wild type
Direction: higher = weaker binding
Starting sequence: PDZK1, PDZ domain 2 (human); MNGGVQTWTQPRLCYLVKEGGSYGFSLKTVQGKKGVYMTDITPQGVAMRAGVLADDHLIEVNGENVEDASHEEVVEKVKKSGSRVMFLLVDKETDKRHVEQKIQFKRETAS; partner HNRVKVYRF
`N65I` — result for “binding free energy change”: 0.326 kcal/mol.
For `V74H`, “binding free energy change” read 0.214 kcal/mol.
`V61N`: “binding free energy change” 1.24 kcal/mol.
Under “binding free energy change”, `V66G` is recorded as 1.54 kcal/mol.
`A47S` — result for “binding free energy change”: 0.905 kcal/mol.
`N65E` — result for “binding free energy change”: 0.235 kcal/mol.
Under “binding free energy change”, `E108I` is recorded as -0.233 kcal/mol.
`G24V` — result for “binding free energy change”: 1.02 kcal/mol.

Block 2
Target: CCNF, cyclin fold, Cln2 fusion (human)
Method: yeast growth competition, sequencing
Matrix: yeast
Setting: strong parent motif
Reference: not given
Direction: higher = stronger binding
Starting sequence: viral docking peptide; KGVKRKLFAEDSS
`E10I`: “normalised enrichment score” 7.55.
`S13A` — result for “normalised enrichment score”: 7.73.
`R5G` — result for “normalised enrichment score”: -0.00133.
For `R5F`, “normalised enrichment score” read 0.512.
`S12H`: “normalised enrichment score” 7.64.
Under “normalised enrichment score”, `A9P` is recorded as 8.35.
For `K6R`, “normalised enrichment score” read 8.77.
For `V3R`, “normalised enrichment score” read 1.18.
`L7Y` — result for “normalised enrichment score”: 0.527.
`D11E` — result for “normalised enrichment score”: 8.26.
`V3T`: “normalised enrichment score” 7.54.
`R5V`: “normalised enrichment score” 1.73.
`K4A` — result for “normalised enrichment score”: 8.48.
`E10F`: “normalised enrichment score” 7.82.
`S12A` — result for “normalised enrichment score”: 8.34.
For `F8W`, “normalised enrichment score” read 5.14.
For `D11T`, “normalised enrichment score” read 7.98.

Block 3
Target: PABPC1L2, full length, GST fusion (mouse, UniProt A0ABA7IW68)
Method: RNAcompete
Form: RNA
Matrix: in vitro
Tested at: 20 nM
Setting: 7-mer, probes averaged, single round
Reference: mean of 7-mers
Direction: higher = stronger binding
Target sequence (chain): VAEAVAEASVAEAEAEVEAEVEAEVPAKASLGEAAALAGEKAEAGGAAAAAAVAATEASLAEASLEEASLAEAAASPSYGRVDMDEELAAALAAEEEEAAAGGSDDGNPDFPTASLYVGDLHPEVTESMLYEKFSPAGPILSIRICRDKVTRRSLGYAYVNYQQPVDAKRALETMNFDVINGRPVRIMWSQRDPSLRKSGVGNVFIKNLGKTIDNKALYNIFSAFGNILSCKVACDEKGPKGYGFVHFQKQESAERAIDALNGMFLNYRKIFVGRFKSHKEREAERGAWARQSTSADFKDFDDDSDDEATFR
`UAACCUC` has a 7-mer Z-score of -0.258.
With `GAAAAAG` the 7-mer Z-score was 12.2.
The 7-mer Z-score of `GACAAUA` is reported as 0.3.
With `AUGCGAG` the 7-mer Z-score was 0.0442.
`UGCUACA` has a 7-mer Z-score of -0.199.
`CAGCUGA` has a 7-mer Z-score of -0.117.
`UAACGCG` gave a 7-mer Z-score of -0.18.
For `CCUGCGC`, the 7-mer Z-score was -0.336.

Block 4
Target: vanadate, free oxyanion
Method: microfluidic competitive inhibition
Matrix: in vitro, cell-free expressed
Tested at: not given
Setting: derived from inhibition constants, unchanged parent 676 nM
Direction: lower = stronger binding
Starting sequence: PafA, mature enzyme, eGFP fusion (Elizabethkingia meningoseptica, UniProt Q9KJX5); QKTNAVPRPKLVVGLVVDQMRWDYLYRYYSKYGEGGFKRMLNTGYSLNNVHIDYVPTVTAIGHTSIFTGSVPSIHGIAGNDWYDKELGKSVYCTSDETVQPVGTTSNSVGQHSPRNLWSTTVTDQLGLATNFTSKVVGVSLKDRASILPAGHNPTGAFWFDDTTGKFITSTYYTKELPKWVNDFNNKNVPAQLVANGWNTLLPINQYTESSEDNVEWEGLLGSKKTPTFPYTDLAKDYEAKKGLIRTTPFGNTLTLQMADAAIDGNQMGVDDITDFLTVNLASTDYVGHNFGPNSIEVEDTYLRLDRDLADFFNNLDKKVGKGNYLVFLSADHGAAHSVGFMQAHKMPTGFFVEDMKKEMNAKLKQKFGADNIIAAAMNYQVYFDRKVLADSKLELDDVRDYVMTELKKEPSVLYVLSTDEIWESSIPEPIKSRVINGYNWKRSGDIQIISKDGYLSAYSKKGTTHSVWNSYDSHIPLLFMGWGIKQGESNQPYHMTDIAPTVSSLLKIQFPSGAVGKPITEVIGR
For `K387V`, “oxyanion analog dissociation constant” read 1.01 µM.
`F229V`: “oxyanion analog dissociation constant” 808 nM.
`N294V`: “oxyanion analog dissociation constant” 790 nM.
`F291V` — result for “oxyanion analog dissociation constant”: 1 µM.
`L256G`: “oxyanion analog dissociation constant” 3.77 µM.
`D23V`: “oxyanion analog dissociation constant” 1.27 µM.
Under “oxyanion analog dissociation constant”, `Q206V` is recorded as 677 nM.
`Y402V`: “oxyanion analog dissociation constant” 560 nM.
`T104G` — result for “oxyanion analog dissociation constant”: 1.65 µM.
`R400G` — result for “oxyanion analog dissociation constant”: 564 nM.
`E97V` — result for “oxyanion analog dissociation constant”: 594 nM.
`A157V` — result for “oxyanion analog dissociation constant”: 603 nM.
For `S451G`, “oxyanion analog dissociation constant” read 755 nM.
`A362G` — result for “oxyanion analog dissociation constant”: 626 nM.
`L414G`: “oxyanion analog dissociation constant” 555 nM.
For `S283G`, “oxyanion analog dissociation constant” read 633 nM.
Under “oxyanion analog dissociation constant”, `Y472V` is recorded as 889 nM.
For `A262G`, “oxyanion analog dissociation constant” read 591 nM.
Under “oxyanion analog dissociation constant”, `L15V` is recorded as 1.01 µM.
Under “oxyanion analog dissociation constant”, `K508V` is recorded as 726 nM.
`V122A` — result for “oxyanion analog dissociation constant”: 603 nM.
Under “oxyanion analog dissociation constant”, `I476V` is recorded as 754 nM.

A few entries again (block 4):
Under “oxyanion analog dissociation constant”, `L15V` is recorded as 1.01 µM.
For `S451G`, “oxyanion analog dissociation constant” read 755 nM.
`D23V`: “oxyanion analog dissociation constant” 1.27 µM.
Under “oxyanion analog dissociation constant”, `I476V` is recorded as 754 nM.
Under “oxyanion analog dissociation constant”, `Q206V` is recorded as 677 nM.
`L414G`: “oxyanion analog dissociation constant” 555 nM.
